Experimental data of several laboratories.
Every numbered part comes from another study and shows a few of its results, in no order. Values joined by “and” are separate records of one study, mostly repeats; a detail may differ.

Set 1 — organism: Sarcocystis neurona; effect on: parasite growth; concentration: 10 µM; time: 96 h; notes: secondary screen
| Structure (SMILES) | inhibition [%] |
| --- | --- |
| CC1CNc2c(cccc2S(=O)(=O)N[C@@H](CCCNC(=N)N)C(=O)N2CC[C@@H](C)C[C@@H]2C(=O)O)C1 (stereo partly shown) | -25.7 |
| COc1ccccc1OCC(O)COC(N)=O (stereo not shown) | -17.2 |
| Cc1nnc(SCC2=C(C(=O)O)N3C(=O)[C@@H](NC(=O)Cn4cnnn4)[C@H]3SC2)s1 | -19.9 |
| O=C1C(CC[S+]([O-])c2ccccc2)C(=O)N(c2ccccc2)N1c1ccccc1 (stereo not shown) | -19.9 |
| Cc1cnc(C(=O)NCCc2ccc(S(=O)(=O)NC(=O)NC3CCCCC3)cc2)cn1 | -4.7 |
| O=C1N[C@H](C(=O)O)CS1 | -0.117 |
| CN(C)CCC[C@@]1(c2ccc(F)cc2)OCc2cc(C#N)ccc21 | -27.6 |
| CCN(CC)CC1CCCCN1CC(=O)N1c2ccccc2C(=O)Nc2cccnc21 (stereo not shown) | -21.5 |

Set 2 — species: mice bearing EL4 tumours; sample: EL4 tumour; dose: dose not given; together with: 13C5-glutamine
SMILES: CC(=O)N[C@@H](Cc1c[nH]c2ccccc12)C(=O)N[C@@H](CCC(=O)C=[N+]=[N-])C(=O)OC(C)C
| item | isotope enrichment |
| --- | --- |
| glutamate M+0 | 81.6% and 84.5% and 83% and 77.4% and 82.8% and 79.6% |
| malate M+4 | 6.71% and 10.6% and 10.8% and 9.13% and 7.82% and 7.74% |
| succinate M+0 | 79.5% and 84.3% and 83.2% and 85.1% and 84.5% and 79.8% |
| fumarate M+4 | 4.01% and 2.62% and 6.48% and 0% and 2.02% |

Set 3 — cell line: L929; effect on: caspase activity; technique: Ac-DEVD-pNA absorbance; reading: higher = more activity
SMILES: CC(C)S(=O)(=O)c1ccc2nccc(Nc3ccc4scnc4c3)c2c1
| concentration | time | caspase-3 activity |
| --- | --- | --- |
| 5 µM | 4 h | 0.066 a.u. and 0.168 a.u. and 0.167 a.u. and 0.171 a.u. |
| 5 µM | 0 h | 0.019 a.u. and 0.005 a.u. and 0.018 a.u. and 0.007 a.u. |
| 10 µM | 1 h | 0.015 a.u. and 0.035 a.u. and 0.075 a.u. and 0.016 a.u. and 0.032 a.u. |

Mixed results
| Structure (SMILES) | target | effect on | action | technique | concentration | measurement | result |
| --- | --- | --- | --- | --- | --- | --- | --- |
| CC(=O)O/N=C1/C(c2c(O)[nH]c3cc(Br)ccc23)=Nc2ccccc21 | Dual specificity tyrosine-phosphorylation-regulated kinase 1B (DYRK1B, Homo sapiens, UniProt Q9Y463) | enzyme activity | inhibitor | radiometric | 0.5 µM | remaining activity | 96% |

Repeated from above (set 2):
| item | isotope enrichment |
| --- | --- |
| glutamate M+0 | 81.6% and 84.5% and 83% and 77.4% and 82.8% and 79.6% |
| fumarate M+4 | 4.01% and 2.62% and 6.48% and 0% and 2.02% |
